# Earlier results as cited in several papers.
# Compare with care: the assays were run in different laboratories. ± marks the error that the study gave.
# Organism: Plasmodium falciparum
Compound,test,system,setting,quantity,result
Cn1cc2c3c1C(=O)c1[nH]cc(-c4ccc(O)cc4)c1C3=[N+](C)CC2,parasite growth,"3D7, chloroquine-sensitive",,IC50,< 50 nM
NC(=O)[C@@H]1Cc2c([nH]c3ccccc23)[C@@H](c2ccc(Cl)cc2Cl)N1,parasite growth,Dd2,,IC50,1200 ± 100 nM
COc1cc(O)c(-c2ccc(OC)c3c(O)cc(C)c(-c4cc(-c5c(O)cc(OC)c6c5C[C@H](C)N(C)[C@@H]6C)c5cc(C)cc(OC)c5c4O)c23)c2c1[C@@H](C)N(C)[C@H](C)C2,,NF54,,IC50,17 nM
CC1=C[C@@H](C)[C@H]2[C@@H]3C(=O)C(Cl)(Cl)C(=O)[C@H](C)C(=O)O[C@@H](C)/C=C/C=C\[C@@H](C)[C@@H]3C=C[C@@H]2C1,,blood stage,,IC50,9.1 nM
COC(=O)C1=CO[C@@H](C)[C@@H]2Cn3ccc4c5ccccc5nc-4c3C[C@H]12,,D6,72 h,IC50,48 nM
COc1ccc2nc3cc(Cl)ccc3c(NCCN3CCN(C)CC3)c2c1,parasite development,Dd2,2 µM,inhibition,> 90%
O=C(C1CCN(c2nnnn2-c2ccccc2)CC1)N1CCc2ccccc2C1,,3D7,,IC50,~1000 nM
CC[C@H](C)[C@@H]1NC(=O)[C@H](CCC(N)=O)NC(=O)[C@H](CCC(N)=O)NC(=O)[C@@H]2CCCN2C(=O)[C@@H]2CCCN2C(=O)[C@H](CO)NC(=O)[C@H](CCSC)NC(=O)[C@H](CCCNC(=N)N)NC(=O)[C@H]([C@@H](C)O)NC(=O)[C@H]([C@@H](C)O)NC(=O)[C@H](Cc2ccccc2)NC(=O)[C@@H](NC(=O)[C@H](CO)NC(=O)[C@H](Cc2ccccc2)NC(=O)[C@H](CC(C)C)NC(=O)[C@@H]2CCCN2C(=O)[C@H](CC(C)C)NC(=O)[C@H](Cc2ccccc2)NC(=O)[C@H](CCC(=O)O)NC(=O)[C@H](C)NC(=O)[C@H](Cc2ccccc2)NC(=O)[C@@H](N)C(C)C)CSSC[C@@H](C(=O)N[C@@H](CC(C)C)C(=O)N[C@@H](CC(N)=O)C(N)=O)NC1=O,parasite growth,3D7,,IC50,~30 nM
O=C(O)[C@@H]1Cc2c([nH]c3ccccc23)[C@@H](c2ccccc2Cl)N1,parasite growth,Dd2,,IC50,3280 ± 990 nM
O=C(/C=C/c1ccc(Cl)c(Cl)c1)N1CCC(CCN2CCC(c3c[nH]c4cnccc34)CC2)CC1,parasite development,Dd2,2 µM,inhibition,> 90%
CC(C)(C)OC(=O)N[C@H](Cc1ccccc1)[C@@H](O)CN1CCC(N2CCCCC2)CC1,parasite growth,3D7,48 h,IC50,1160 nM
CCN(CC)c1ccc2nc3c4ccccc4/c(=N/c4ccncc4)cc-3oc2c1,parasite growth,K1,,IC50,3 ng/mL

# Some of these lines once more:
Compound,test,system,setting,quantity,result
Cn1cc2c3c1C(=O)c1[nH]cc(-c4ccc(O)cc4)c1C3=[N+](C)CC2,parasite growth,"3D7, chloroquine-sensitive",,IC50,< 50 nM
NC(=O)[C@@H]1Cc2c([nH]c3ccccc23)[C@@H](c2ccc(Cl)cc2Cl)N1,parasite growth,Dd2,,IC50,1200 ± 100 nM
